Experimental data from different studies.
Lines come from different studies, so protocols differ. “And” joins repeats or separate records; there may be more than shown. ± gives the spread as reported.
Aryl hydrocarbon receptor: Aryl hydrocarbon receptor (Danio rerio, UniProt Q9YGV3)
UniProt Q01105, sequence (whole entry, unmodified, looked up): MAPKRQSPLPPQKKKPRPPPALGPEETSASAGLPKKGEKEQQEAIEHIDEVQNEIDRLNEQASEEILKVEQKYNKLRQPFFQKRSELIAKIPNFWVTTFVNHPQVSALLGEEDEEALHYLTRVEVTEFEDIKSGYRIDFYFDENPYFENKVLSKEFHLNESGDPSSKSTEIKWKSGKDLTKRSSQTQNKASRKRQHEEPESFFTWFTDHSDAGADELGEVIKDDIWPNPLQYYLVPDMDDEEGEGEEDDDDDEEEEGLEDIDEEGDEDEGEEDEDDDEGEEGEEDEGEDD
UniProt P00519, sequence (whole entry, unmodified, looked up): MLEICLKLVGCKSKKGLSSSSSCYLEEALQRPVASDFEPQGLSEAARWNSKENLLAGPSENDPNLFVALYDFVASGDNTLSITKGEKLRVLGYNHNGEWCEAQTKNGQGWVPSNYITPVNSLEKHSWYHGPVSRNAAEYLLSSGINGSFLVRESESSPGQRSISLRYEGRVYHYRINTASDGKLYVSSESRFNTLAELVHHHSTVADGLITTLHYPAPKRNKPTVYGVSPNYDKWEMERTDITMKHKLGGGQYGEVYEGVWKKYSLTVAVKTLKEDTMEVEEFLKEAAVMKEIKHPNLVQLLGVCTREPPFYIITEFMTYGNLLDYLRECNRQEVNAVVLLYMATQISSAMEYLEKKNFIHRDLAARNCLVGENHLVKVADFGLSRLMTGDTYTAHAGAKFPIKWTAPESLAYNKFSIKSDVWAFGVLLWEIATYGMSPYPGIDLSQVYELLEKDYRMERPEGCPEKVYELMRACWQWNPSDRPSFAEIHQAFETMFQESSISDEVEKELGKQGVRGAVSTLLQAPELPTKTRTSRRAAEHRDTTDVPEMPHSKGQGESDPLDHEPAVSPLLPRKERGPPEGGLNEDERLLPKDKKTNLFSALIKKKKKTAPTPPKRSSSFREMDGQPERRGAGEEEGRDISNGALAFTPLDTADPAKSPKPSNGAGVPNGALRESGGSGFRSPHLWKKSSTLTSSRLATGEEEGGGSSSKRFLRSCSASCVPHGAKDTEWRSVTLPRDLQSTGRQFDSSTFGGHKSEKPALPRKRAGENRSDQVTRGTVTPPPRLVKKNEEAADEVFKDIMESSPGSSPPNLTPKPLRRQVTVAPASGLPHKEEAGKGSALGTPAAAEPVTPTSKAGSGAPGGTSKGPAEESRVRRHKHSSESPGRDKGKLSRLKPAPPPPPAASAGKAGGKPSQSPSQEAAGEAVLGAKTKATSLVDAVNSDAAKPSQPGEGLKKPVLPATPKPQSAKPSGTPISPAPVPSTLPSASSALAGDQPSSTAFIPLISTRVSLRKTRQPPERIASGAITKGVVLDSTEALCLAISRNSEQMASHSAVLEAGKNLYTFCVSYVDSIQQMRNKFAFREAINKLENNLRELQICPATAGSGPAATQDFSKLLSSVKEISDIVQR
UniProt P27487, sequence (whole entry, looked up): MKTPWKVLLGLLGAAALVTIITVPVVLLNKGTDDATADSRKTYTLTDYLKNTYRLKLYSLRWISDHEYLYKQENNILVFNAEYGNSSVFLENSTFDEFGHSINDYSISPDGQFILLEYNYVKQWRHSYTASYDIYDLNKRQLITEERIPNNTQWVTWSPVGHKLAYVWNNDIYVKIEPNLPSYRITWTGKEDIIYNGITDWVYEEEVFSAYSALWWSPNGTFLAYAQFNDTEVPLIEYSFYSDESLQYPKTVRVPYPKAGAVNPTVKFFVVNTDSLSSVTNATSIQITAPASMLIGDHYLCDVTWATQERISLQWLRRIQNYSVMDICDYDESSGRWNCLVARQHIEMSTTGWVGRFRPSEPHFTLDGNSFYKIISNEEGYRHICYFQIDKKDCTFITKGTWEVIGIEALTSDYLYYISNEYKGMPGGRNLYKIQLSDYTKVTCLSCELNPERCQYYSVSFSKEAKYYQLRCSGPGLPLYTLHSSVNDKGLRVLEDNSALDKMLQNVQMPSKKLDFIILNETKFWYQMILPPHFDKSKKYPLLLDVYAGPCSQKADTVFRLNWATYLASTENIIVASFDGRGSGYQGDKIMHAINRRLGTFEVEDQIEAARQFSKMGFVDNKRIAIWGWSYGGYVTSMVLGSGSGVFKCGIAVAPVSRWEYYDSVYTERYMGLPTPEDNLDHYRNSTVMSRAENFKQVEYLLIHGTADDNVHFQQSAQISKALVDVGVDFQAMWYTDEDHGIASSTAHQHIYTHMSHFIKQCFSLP
UniProt P49773, sequence (whole entry, looked up): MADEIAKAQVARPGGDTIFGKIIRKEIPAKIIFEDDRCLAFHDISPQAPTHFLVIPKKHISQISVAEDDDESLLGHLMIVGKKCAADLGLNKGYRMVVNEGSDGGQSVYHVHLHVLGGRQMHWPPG
UniProt Q13133, sequence (whole entry, looked up): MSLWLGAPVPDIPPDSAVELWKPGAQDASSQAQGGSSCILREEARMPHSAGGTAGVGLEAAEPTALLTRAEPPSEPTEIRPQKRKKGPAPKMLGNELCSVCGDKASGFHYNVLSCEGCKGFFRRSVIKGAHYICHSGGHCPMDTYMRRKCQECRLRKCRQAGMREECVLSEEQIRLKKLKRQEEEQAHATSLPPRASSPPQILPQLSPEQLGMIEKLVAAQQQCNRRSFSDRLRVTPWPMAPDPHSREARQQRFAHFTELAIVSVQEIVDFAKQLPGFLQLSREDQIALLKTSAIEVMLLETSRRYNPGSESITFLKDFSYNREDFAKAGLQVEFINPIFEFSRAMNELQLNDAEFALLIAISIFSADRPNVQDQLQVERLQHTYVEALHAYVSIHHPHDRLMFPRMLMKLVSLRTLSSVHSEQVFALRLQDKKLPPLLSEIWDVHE
UniProt P35869, sequence (whole entry, looked up): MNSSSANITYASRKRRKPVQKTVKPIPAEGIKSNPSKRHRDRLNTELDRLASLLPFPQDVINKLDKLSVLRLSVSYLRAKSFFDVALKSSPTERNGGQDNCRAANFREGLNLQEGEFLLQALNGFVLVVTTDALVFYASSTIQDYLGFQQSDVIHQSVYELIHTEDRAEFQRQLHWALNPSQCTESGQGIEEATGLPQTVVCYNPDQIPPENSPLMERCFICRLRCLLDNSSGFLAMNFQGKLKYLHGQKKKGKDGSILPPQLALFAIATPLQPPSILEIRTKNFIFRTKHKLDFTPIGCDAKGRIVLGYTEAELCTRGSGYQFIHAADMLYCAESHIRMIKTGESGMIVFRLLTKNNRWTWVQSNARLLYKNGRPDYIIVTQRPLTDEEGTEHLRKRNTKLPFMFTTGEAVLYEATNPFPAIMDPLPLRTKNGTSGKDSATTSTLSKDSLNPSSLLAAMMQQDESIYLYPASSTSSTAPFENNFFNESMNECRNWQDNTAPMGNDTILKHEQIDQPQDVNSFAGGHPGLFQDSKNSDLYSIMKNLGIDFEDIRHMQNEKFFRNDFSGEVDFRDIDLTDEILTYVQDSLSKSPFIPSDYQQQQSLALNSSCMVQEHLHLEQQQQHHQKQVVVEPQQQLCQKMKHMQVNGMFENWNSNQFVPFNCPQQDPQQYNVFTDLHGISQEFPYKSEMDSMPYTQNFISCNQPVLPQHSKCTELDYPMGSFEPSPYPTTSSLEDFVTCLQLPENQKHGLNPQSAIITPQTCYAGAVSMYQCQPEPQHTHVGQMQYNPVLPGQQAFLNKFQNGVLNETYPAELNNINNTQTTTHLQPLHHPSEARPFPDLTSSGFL
UniProt Q9I4X0, sequence (whole entry, looked up): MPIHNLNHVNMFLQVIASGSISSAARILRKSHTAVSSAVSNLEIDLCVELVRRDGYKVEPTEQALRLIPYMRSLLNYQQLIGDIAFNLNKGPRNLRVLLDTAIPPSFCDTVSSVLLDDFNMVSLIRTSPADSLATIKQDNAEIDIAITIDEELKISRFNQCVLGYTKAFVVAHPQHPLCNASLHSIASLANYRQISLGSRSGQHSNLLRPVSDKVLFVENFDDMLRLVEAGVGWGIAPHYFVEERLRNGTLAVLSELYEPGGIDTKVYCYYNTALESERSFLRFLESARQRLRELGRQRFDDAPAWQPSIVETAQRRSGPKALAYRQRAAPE
UniProt P61962, sequence (whole entry, looked up): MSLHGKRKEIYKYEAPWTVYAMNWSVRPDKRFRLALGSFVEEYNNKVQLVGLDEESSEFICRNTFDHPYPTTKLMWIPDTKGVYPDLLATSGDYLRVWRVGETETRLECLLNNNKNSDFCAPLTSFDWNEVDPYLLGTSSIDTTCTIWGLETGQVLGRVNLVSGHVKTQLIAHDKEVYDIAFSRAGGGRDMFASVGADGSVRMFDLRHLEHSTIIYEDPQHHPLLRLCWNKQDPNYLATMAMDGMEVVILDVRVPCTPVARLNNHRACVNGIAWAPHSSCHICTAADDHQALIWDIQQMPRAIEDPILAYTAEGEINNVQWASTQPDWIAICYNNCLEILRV
UniProt P32320, sequence (whole entry, looked up): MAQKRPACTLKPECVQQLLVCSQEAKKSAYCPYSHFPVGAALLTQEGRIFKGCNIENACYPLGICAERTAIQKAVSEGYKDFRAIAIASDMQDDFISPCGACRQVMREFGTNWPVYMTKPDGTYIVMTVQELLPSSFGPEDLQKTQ
UniProt P62813, sequence (whole entry, looked up): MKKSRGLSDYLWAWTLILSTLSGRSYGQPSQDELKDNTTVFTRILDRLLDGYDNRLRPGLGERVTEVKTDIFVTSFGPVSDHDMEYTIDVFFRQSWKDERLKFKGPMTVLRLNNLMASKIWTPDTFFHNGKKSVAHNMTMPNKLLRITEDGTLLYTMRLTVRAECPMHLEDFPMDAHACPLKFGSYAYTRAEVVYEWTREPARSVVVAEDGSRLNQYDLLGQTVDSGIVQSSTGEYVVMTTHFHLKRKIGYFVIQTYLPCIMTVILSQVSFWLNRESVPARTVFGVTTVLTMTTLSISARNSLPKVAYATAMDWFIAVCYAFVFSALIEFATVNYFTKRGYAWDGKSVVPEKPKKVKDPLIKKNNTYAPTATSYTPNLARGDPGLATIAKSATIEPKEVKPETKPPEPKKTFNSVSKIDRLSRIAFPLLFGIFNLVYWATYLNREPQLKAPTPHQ

Under “target engagement efficiency”, CC(=O)OCc1nn(C)c2nc(N)[nH]c(=O)c2c1=O is recorded as 49.1% (folP (Bacteria, UniProt P0AC13); CETSA HiBiT; Escherichia coli, whole cells; concentration not given; reference: whole cell over lysate ΔTm).
With c1ccc2c(c1)ccc1ccccc12 the maximum response was 111 LacZ units (AHR (Homo sapiens, UniProt P35869); reporter gene, agonist, yeast LacZ reporter; Saccharomyces cerevisiae).
For CC1=C(/C=C/C(C)=C/C=C/C(C)=C/C=C/C=C(C)/C=C/C=C(C)/C=C/C2=C(C)CCCC2(C)C)C(C)(C)CCC1, “Stern-Volmer quenching constant” read 12700 ± 1800 L/mol (Beta-lactoglobulin (LGB, Bos taurus, UniProt P02754); fluorescence quenching; 298 K).
The fold change of O=C1C[C@@H](c2ccccc2)Oc2cc(O)cc(O)c21 is reported as 1.5 (Aryl hydrocarbon receptor; reporter gene, agonist, luciferase reporter; ZF-4; 123.5 µM; reference: vehicle control).
O=C(COP(=O)(O)O)[C@@H](O)[C@H](O)[C@H](O)COP(=O)(O)O — result for “minimum concentration, maximal activation”: 232 ± 128 nM (Pyruvate kinase PKM (PKM, Homo sapiens, UniProt P14618); pyruvate kinase activity, activator; SK-HEP1 cell lysate; without AIM).
The remaining binding of CN(C)c1nccc(-c2cnn3ncccc23)n1 is reported as 56% and 100% (ABL1 (Homo sapiens, UniProt P00519, F317L); KINOMEscan; 1 µM; reference: control).
CCCCCCCCCCCCC/C=C/[C@@H](O)[C@H](CO)NC(=O)CCCCCCCCCCCCCCCCCCC: “bound endogenous lipid” 1.5 (Protein SET (SET, Homo sapiens, UniProt Q01105, K222D); lipid binding, GFP pull-down LC-MS/MS; A549 overexpressing GFP-tagged protein; unit not given; reference: vector-transfected cells).
The activation of COc1cccc2c(Nc3ccc4[nH]c(C(=O)N/N=C/c5ccc(SC)cc5)cc4c3)cc(C)nc12 is reported as 0.72 fold (NR1H3 (Homo sapiens, UniProt Q13133); reporter gene, Gal4 hybrid reporter; 3 µM; reference: vehicle).
For CC(=C/C(=O)O)/C=C/C=C(\C)C1C=C2C(C)(C)CCCC2(C)O1 (stereo not drawn), “Pearson correlation coefficient” read 0.81 (Rhodopsin (RHO, Homo sapiens, UniProt P08100, E181K); ER retention, immunostaining co-localization, measured: opsin with calnexin; COS-7 transfected E181K; 0.10 µM).
For c1coc(-c2n[nH]cc2-c2ccnc3ccccc23)c1, “log2 fold change” read -0.06 (Serine/threonine-protein kinase ATG1 (ATG1, Candida albicans, UniProt Q5A649); kinase binding, MIB/MS competition; Candida albicans lysate; 10 µM; reference: DMSO, negative = stronger binding).
COc1cccc(C(=O)C#Cc2ccc(F)c(F)c2)c1 gave a binding of 88% (mvfR (Pseudomonas aeruginosa, UniProt Q9I4X0); receptor binding; concentration not given, 1.5 h, together with: PQS at 1:1 ratio; reference: control).
CC[C@@H]1[C@H](F)C(=O)N[C@@H]1COc1nccc2cc(C(N)=O)c(OC)cc12 gave an inhibition of 0.742% (MASTL (Homo sapiens, UniProt Q96GX5); ATP-site probe binding, ActivX profiling; THP-1 cell lysate; 0.04 mM, Lys1 site).
CCCCCCCCCCCCC/C=C/[C@@H](O)[C@H](CO)NC(=O)CCCCCCCCCCCCCCCCC — result for “bound endogenous lipid”: 43.2 (Protein SET (SET, Homo sapiens, UniProt Q01105, Y135C); lipid binding, GFP pull-down LC-MS/MS; A549 overexpressing GFP-tagged protein; unit not given; reference: vector-transfected cells).
With COc1ccc(F)cc1C(=O)NCc1ccc(-c2nn([C@@H](C)C(F)(F)F)c(N)c2C(N)=O)cc1 the remaining activity was 103 ± 1.4% (MAP4K1 (Homo sapiens, UniProt Q92918); kinase activity, inhibitor, HotSpot radiometric; 1000 nM, together with: ATP at Km).
O=C(CCCc1ccccc1)C(=O)NCCc1ccc(Oc2ccc(C(F)(F)F)cn2)cc1 — result for “probe-enriched protein abundance”: 29000 a.u. and 29200 a.u. and 27200 a.u. (DPP4 (Homo sapiens, UniProt P27487); inhibitor, FP-biotin chemoproteomics; HepG2; concentration not given; reference: DMSO, lower = stronger inhibition).
The remaining activity of COc1cc(Nc2ncc3c(n2)-c2ccc(Cl)cc2C(c2c(F)cccc2OC)=NC3)ccc1C(=O)O is reported as 109% (INSRR; kinase activity; 1 µM).
Nc1nc(=O)n([C@@H]2O[C@H](CO)[C@@H](O)[C@H]2F)cc1-c1ccco1 has a kcat of 2.5 to 3.3 s⁻¹ (Cytidine deaminase (CDA, Homo sapiens, UniProt P32320); deamination, substrate, real-time fluorescence; pH 7.4, 37 °C).
The remaining binding of CC1CCCN1c1nccc(-c2cnn3ncccc23)n1 (stereo not drawn) is reported as 100% (ABL1 (Homo sapiens, UniProt P00519, F317I); KINOMEscan; 1 µM).
CC/C=C\C[C@H](O)/C=C/C=C\C/C=C\C=C\[C@@H](O)C/C=C\CCC(=O)O — result for intracellular calcium: “no effect” (FPR2 (Homo sapiens, UniProt P25090); calcium mobilisation; HEK293 expressing FPR2; concentration not given).
For Cc1ccc(NC(=O)c2ccccc2C#Cc2ccc(C#N)cc2N(C)C)cc1, the normalized score was 0.283 (GABA-A receptor; alpha-1/beta-2/gamma-2 (Rattus norvegicus, UniProt P18508+P62813+P63138); membrane potential, agonist, QP-DHM primary screen; HEK293 expressing GABAA; 10 µM; direction not given).
The fold change of c1ccc2c(c1)-c1cccc3c1c-2cc1ccccc13 is reported as 9.17 (Aryl hydrocarbon receptor; reporter gene, agonist, luciferase reporter; ZF-4; 1111.11 µM; reference: vehicle control).
O=C(COP(=O)(O)O)[C@@H](O)[C@H](O)[C@H](O)COP(=O)(O)O: “thermal stability ratio” 0.49 and 0.985 and 0.694 (HINT1 (Homo sapiens, UniProt P49773); thermal proteome profiling; HepG2 cell lysate; concentration not given, 57 over 37 °C; reference: compound over control).
Cc1cnc(Nc2ccc(C(=O)N3CCC(N4CCCC4)CC3)cc2)nc1-c1cc2ccccc2s1 gave a ligand efficiency of 0.29 (Protein kinase 6 (Plasmodium falciparum, UniProt Q8IDW1); binding, KinaseSeeker split luciferase).
Cn1c2c(Cl)c(Cl)ccc2c2cn[nH]c(=O)c21 gave a delta Tm of -0.1 °C (Serine/threonine-protein kinase VRK3 (VRK3, Homo sapiens, UniProt Q8IV63); thermal stability, thermal shift; 10 µM; higher = stronger binding).
With Cc1ncsc1-c1ccc(CNC(=O)[C@@H]2C[C@@H](O)CN2C(=O)[C@@H](NC(=O)C2(F)CC2)C(C)(C)C)c(OCCOCCOCCN2CCN(c3cc(-c4ccccc4O)nnc3N)CC2)c1 the cooperativity factor was 4.5 (VHL-ElonginB-ElonginC complex human; ternary complex formation, fluorescence polarization; together with: PBRM1 bromodomain 5).
The DC50 ratio of CN(CCCCCCNC(=O)CNc1cccc2c1C(=O)N(C1CCC(=O)NC1=O)C2=O)Cc1cn(Cc2ccc(C(=O)NO)cc2)c2ccccc12.O=C(O)C(F)(F)F (stereo not drawn) is reported as 3.1 fold (HDAC6 (Homo sapiens, UniProt Q9UBN7); protein degradation, degrader, western blot; MM1.S cells; 24 h; reference: HDAC10 over HDAC6).
The fold change of Cc1cccc2c1ccc1cc(C(C)C)ccc12 is reported as 1.58 (Aryl hydrocarbon receptor; reporter gene, agonist, luciferase reporter; ZF-4; 1111.11 µM; reference: vehicle control).
O=C(O)C1CCCNC1 (stereo not drawn) — result for “normalised MST signal”: 0.0401 (SLC6A6 (Homo sapiens, UniProt P31641, G62A); binding, microscale thermophoresis; 122 nM, room temperature, together with: 50 nM labelled protein; higher = more binding).
CCCCCCCC/C=C\CCCCCCCC(=O)NCCc1ccc(O)c(O)c1: “maximal open probability” 0.67 ± 0.08 (Trpv1 (Mus musculus, UniProt Q704Y3, D510E); ion current, agonist, whole-cell patch clamp; D510E; reference: 3 mM 2-APB).
CCCCC[S+]([O-])c1n[nH]c(N)n1 (stereo not drawn) has a fold enrichment of 0.896 (DDB1- and CUL4-associated factor 7 (Homo sapiens, UniProt P61962); binding, affinity selection mass spectrometry; reference: other proteins in batch).
For Cn1cc(-c2ccc(-c3cncc(Cl)c3N3CCC4(CCNC4=O)CC3)cc2)cn1, “log2 fold change” read 1.3 (COLO 205; gene expression, microarray, measured: FHL2 mRNA; concentration not given, 6 h; reference: untreated cells).
With Cc1cc2ccccc2c2ccc3ccccc3c12 the fold change was 4.63 (Aryl hydrocarbon receptor; reporter gene, agonist, luciferase reporter; ZF-4; 370.37 µM; reference: vehicle control).
C=CC(=O)N1CCC(COCC(=O)N2CCN(c3nc(-c4cnc(N)nc4C(F)F)nc(N4CCOC[C@@H]4C)n3)CC2)CC1 gave a remaining binding of 89% (TLK1 (Homo sapiens, UniProt Q9UKI8); KINOMEscan; 1 µM).
Under “bound endogenous lipid”, CCCCCCCCCCCCC/C=C/[C@@H](O)[C@H](CO)NC(=O)CCCCCCCCCCCCCCCCCCCCC is recorded as 1 (Protein SET (SET, Homo sapiens, UniProt Q01105); lipid binding, GFP pull-down LC-MS/MS; A549 overexpressing GFP-tagged protein; ER-targeted construct, unit not given; reference: vector-transfected cells).
For CC[C@H](C)[C@H](NC(=O)[C@H](CCCNC(=N)N)NC(=O)[C@H](Cc1c[nH]cn1)NC(=O)[C@H](CCCNC(=N)N)NC(=O)[C@H](CC(=O)O)NC(=O)[C@H](CC(=O)O)NC(=O)[C@@H](NC(=O)[C@H](CC(=O)O)NC(=O)[C@@H]1CCCN1C(=O)[C@@H](N)CC(C)C)[C@@H](C)O)C(=O)N[C@@H](CCC(=O)O)C(=O)N[C@@H](CCC(=O)O)C(=O)N[C@@H](CCCCN)C(=O)N[C@@H](CCCNC(=N)N)C(=O)N[C@@H](CCCCN)C(=O)N[C@@H](CCCNC(=N)N)C(=O)N[C@H](C(=O)N[C@@H](Cc1ccc(O)cc1)C(=O)N[C@@H](CCC(=O)O)C(=O)N[C@H](C(=O)N[C@@H](Cc1ccccc1)C(=O)N[C@@H](CCCCN)C(=O)N[C@@H](CO)C(=O)N[C@@H](C)C(=O)N[C@@H](CCSC)C(=O)N[C@@H](CCCCN)C(=O)N[C@@H](CCCCN)C(=O)N[C@@H](CO)C(=O)N1CCC[C@H]1C(=O)N[C@@H](Cc1ccccc1)C(=O)N[C@@H](CC(N)=O)C(=O)NCC(=O)N1CCC[C@H]1C(=O)O)[C@@H](C)O)[C@@H](C)O, the ΔH was -7.3 ± 0.2 kcal/mol (NF-kappa-B inhibitor alpha (Homo sapiens, UniProt P25963); binding, ITC; pH 7.5, 293 K, 50 mM NaCl).
The decatenated DNA of O=c1nc(SCc2cc(F)cc(C(F)(F)F)c2)nc(SCc2ccc3nc(Cl)ccc3c2)[nH]1 is reported as 0% (TOP2A (Homo sapiens, UniProt P11388); decatenation; 125 µM, replicate 2).

Excerpt of the above:
CC[C@@H]1[C@H](F)C(=O)N[C@@H]1COc1nccc2cc(C(N)=O)c(OC)cc12 gave an inhibition of 0.742% (MASTL (Homo sapiens, UniProt Q96GX5); ATP-site probe binding, ActivX profiling; THP-1 cell lysate; 0.04 mM, Lys1 site).
CCCCCCCCCCCCC/C=C/[C@@H](O)[C@H](CO)NC(=O)CCCCCCCCCCCCCCCCC — result for “bound endogenous lipid”: 43.2 (Protein SET (SET, Homo sapiens, UniProt Q01105, Y135C); lipid binding, GFP pull-down LC-MS/MS; A549 overexpressing GFP-tagged protein; unit not given; reference: vector-transfected cells).
